Measurements collected from several papers.
Protocols differ between the studies behind these lines. ± marks the error that the study gave.
Genome polyprotein NS2B-NS3 protease: Genome polyprotein, NS2B-NS3 protease (dengue virus type 2, UniProt P29990)
Cnr1: Cannabinoid receptor 1 (Cnr1, Mus musculus, UniProt P47746)
Chain of UniProt P47746 (whole entry, looked up): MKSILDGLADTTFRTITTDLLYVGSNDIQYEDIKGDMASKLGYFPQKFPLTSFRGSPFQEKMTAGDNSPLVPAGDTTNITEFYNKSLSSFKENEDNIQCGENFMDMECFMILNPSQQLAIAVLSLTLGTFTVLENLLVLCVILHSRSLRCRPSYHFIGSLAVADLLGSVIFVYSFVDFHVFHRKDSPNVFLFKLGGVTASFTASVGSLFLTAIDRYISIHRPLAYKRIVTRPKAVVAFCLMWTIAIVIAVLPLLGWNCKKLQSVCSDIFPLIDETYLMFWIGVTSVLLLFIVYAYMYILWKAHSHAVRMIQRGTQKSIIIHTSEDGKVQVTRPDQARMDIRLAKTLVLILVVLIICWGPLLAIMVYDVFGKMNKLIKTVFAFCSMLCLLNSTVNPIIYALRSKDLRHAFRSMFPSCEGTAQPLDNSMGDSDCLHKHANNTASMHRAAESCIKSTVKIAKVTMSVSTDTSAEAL
Chain of UniProt P30536 (whole entry, unmodified, looked up): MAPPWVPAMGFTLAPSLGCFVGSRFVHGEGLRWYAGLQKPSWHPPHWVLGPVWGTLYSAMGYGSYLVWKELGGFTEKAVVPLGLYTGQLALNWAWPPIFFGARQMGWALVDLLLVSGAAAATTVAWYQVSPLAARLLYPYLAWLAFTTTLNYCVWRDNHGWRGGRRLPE
Chain of UniProt P02730 (whole entry, looked up): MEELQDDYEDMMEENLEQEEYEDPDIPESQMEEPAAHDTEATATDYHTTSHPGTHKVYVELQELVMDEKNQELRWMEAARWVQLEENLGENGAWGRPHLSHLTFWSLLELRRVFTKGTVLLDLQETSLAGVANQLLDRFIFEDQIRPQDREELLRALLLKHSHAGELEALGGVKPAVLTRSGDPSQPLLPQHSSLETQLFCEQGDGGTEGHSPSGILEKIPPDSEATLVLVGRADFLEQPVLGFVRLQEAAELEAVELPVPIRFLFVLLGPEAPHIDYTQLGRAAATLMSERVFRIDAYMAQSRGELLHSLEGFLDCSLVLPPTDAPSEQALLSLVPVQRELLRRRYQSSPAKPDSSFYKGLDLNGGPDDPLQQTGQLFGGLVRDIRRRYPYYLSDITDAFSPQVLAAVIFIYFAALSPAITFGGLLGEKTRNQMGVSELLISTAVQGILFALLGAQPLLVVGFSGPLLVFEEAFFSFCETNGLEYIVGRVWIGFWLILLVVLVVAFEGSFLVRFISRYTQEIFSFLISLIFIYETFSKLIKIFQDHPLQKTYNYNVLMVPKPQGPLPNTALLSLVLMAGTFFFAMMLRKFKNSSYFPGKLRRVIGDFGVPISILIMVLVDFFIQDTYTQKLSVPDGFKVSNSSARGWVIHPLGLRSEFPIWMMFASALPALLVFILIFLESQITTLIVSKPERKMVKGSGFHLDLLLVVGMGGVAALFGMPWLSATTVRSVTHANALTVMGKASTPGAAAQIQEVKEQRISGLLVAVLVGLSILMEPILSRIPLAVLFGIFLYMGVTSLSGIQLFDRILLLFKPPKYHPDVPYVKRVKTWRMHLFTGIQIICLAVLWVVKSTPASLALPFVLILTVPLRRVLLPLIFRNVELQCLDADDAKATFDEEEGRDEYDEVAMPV
Chain of UniProt Q12908 (whole entry, looked up): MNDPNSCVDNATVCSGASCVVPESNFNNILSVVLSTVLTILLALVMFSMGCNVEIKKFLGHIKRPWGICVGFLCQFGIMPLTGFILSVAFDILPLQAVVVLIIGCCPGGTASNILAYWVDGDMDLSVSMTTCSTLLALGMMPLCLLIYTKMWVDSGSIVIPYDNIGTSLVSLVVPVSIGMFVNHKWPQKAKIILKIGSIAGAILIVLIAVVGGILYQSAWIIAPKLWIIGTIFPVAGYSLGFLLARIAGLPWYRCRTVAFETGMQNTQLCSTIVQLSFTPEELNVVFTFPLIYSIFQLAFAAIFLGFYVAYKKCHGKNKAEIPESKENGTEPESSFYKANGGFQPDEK
Chain of UniProt Q8VD00 (whole entry, looked up): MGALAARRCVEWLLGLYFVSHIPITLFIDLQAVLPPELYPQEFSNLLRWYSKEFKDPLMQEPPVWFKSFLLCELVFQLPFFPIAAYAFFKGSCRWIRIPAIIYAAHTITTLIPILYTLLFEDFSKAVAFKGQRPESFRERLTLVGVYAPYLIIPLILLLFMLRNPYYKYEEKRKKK

Molecule = Clc1cc(OCc2nnc3sc(Cc4ccccc4)nn23)c(Cl)cc1OCc1nnc2sc(Cc3ccccc3)nn12; tested on = Genome polyprotein NS2B-NS3 protease; assay = enzyme activity, inhibitor; system = Dengue virus; setting = pH 8.0, together with: 20 µM Pyr-RTKR-AMC; endpoint = IC50; value = > 10 µM
Molecule = CCCCCCC(C)(C)c1ccc([C@@H]2C[C@H](O)CC[C@H]2CCCO)c(O)c1; tested on = Cnr1; assay = cAMP level, agonist; system = Neuro2A; setting = together with: 10 µM forskolin; endpoint = IC50; value = 0.0098 ± 0.0037 µM
Molecule = CCN(CC)C(=O)Cn1c2ccccc2c2ccccc21; tested on = Translocator protein, A147T (TSPO, Homo sapiens, UniProt P30536); assay = radioligand binding; setting = together with: [3H]PK11195; endpoint = Ki; value = 0.177 ± 0.0416 µM
Molecule = CCCCN1C(=O)C(C=CC=CC=C2C(=O)N(c3ccc(S(=O)(=O)O)cc3)N=C2C)C(=O)N(CCCC)C1=O; tested on = SLC4A1 (Homo sapiens, UniProt P02730); assay = chloride exchange, 36Cl flux, measured: outward-facing iodide-loaded transporter; setting = 0 °C, Dixon plot, initial binding; endpoint = Ki; value = 0.36 ± 0.07 µM
Molecule = Cc1cccc(Cn2cc(COc3cc(-n4nc(C(C)(C)C)oc4=O)c(Cl)cc3Cl)nn2)c1; tested on = Toxoplasma gondii; assay = intracellular growth; system = HFF, Δppo knockout; setting = 96 h; endpoint = IC50; value = 34.6 ± 8.9 µM
Molecule = C=CCN1CCC2(C)c3cc(O)ccc3CC1C2C (single isomer, unassigned; (-)); tested on = Tmem97 (Mus musculus, UniProt Q8VD00); assay = ligand displacement, radioligand; setting = cell membranes; endpoint = Ki; value = 4.22 µM
Molecule = C[C@H](CCC(=O)NCC(=O)O)[C@H]1CC[C@H]2[C@@H]3[C@H](O)C[C@H]4C[C@H](OC(=O)c5cccnc5)CC[C@]4(C)[C@H]3CC[C@]12C; tested on = SLC10A2 (Homo sapiens, UniProt Q12908); assay = taurocholate uptake, inhibitor; system = MDCK expressing SLC10A2; endpoint = Ki; value = < 25 µM
Molecule = CC(C)(C)c1nn(-c2cc(OCc3cn(Cc4cccc(Br)c4)nn3)c(Cl)cc2Cl)c(=O)o1; tested on = Toxoplasma gondii; assay = intracellular growth; system = HFF, Δppo knockout; setting = 96 h; endpoint = IC50; value = 31.5 ± 8 µM
Molecule = CC(=O)C[C@@H](c1ccccc1)c1c(O)c2ccc(O)cc2oc1=O; assay = substrate, measured: 7-hydroxywarfarin 7-glucuronide; system = pooled human liver microsomes; endpoint = Ki; value = 1310 µM
Molecule = O=c1[nH]c2ccccc2n1C1CCN(Cc2ccc(-c3nc4cc5[nH]cnc5cc4nc3-c3ccccc3)cc2)CC1; tested on = HeLa expressing Luc-ODC; assay = Luc-ODC degradation, inhibitor, cycloheximide chase luciferase; endpoint = IC50; value = 2.9 ± 0.4 µM
Molecule = Clc1ccc(-c2nn3c(COc4cc(Cl)c(OCc5nnc6sc(-c7ccc(Cl)cc7)nn56)cc4Cl)nnc3s2)cc1; tested on = Genome polyprotein NS2B-NS3 protease; assay = enzyme activity, inhibitor; system = Dengue virus; setting = pH 8.0, together with: 20 µM Pyr-RTKR-AMC; endpoint = IC50; value = > 10 µM
Molecule = CCCCCCCCCCCCCC(=O)O[C@@H]1[C@@H](C)[C@@]2(O)[C@@H](C=C(CO)C[C@]3(O)C(=O)C(C)=C[C@@H]23)[C@H]2C(C)(C)[C@]12OC(C)=O; tested on = PKCθ rat; assay = kinase activity; setting = 1 µM, immunoprecipitated enzyme, together with: PKC substrate peptide; how to read = relative to: untreated; endpoint = remaining activity; value = 235 ± 22%
Molecule = CC(C)(C)c1ccc(S(=O)(=O)/C=C/C#N)cc1; tested on = C2C12 myotubes; assay = NF-κB reporter gene, inhibitor; setting = 24 h, together with: TNF-α 10 ng/mL; endpoint = IC50; value = 6.31 µM
Molecule = CCCCn1cc(C(=O)c2cccc3ccccc23)c2cccc(O)c21; tested on = Cnr1; assay = antagonist, Schild analysis; system = mouse brain homogenate; setting = together with: JWH-018; endpoint = Kb; value = 0.0481 µM
Molecule = CC[C@H](C)[C@@H](CC(=O)N[C@@H](CCC(=O)O)CC(=O)O)NC(=O)C[C@@H](NC(=O)C[C@H](CCCN)NC(=O)C[C@H](Cc1c[nH]c2ccccc12)NC(=O)C[C@@H](NC(=O)C[C@H](CCC(=O)O)NC(=O)C[C@H](Cc1c[nH]c2ccccc12)NC(=O)C[C@@H](NC(=O)C[C@@H](N)CCCN)C(C)C)C(C)C)C(C)C; tested on = HIV-1 gp41 IQN17; assay = fluorescence polarization; setting = fluorescein-labelled compound; endpoint = Kd; value = 16.5 ± 0.6 µM
Molecule = CC(C)(C)c1nn(-c2cc(OCc3cn(Cc4cccc(C(F)(F)F)c4)nn3)c(Cl)cc2Cl)c(=O)o1; tested on = Toxoplasma gondii; assay = intracellular growth; system = HFF, Δppo knockout; setting = 96 h; endpoint = IC50; value = 21 ± 4.9 µM
Molecule = CCOc1ccc2cc(-c3nn(C(C)(C)C)c(N)c3C(N)=O)cnc2c1; tested on = CDPK1 (Sarcocystis neurona); assay = kinase activity, inhibitor, Kinase-Glo; setting = 90 min, 30 °C, together with: 10 µM ATP; endpoint = IC50; value = 0.002 µM
Molecule = CCn1cnc2c(Nc3cccc(Cl)c3)nc(N[C@@H]3CCCC[C@@H]3N)nc21; tested on = HeLa expressing Luc-ODC; assay = Luc-ODC degradation, inhibitor, cycloheximide chase luciferase; endpoint = IC50; value = 7 ± 2 µM
Molecule = cholecystokinin octapeptide; tested on = rat pancreatic acini; assay = agonist; endpoint = EC50; value = 0.00211 ± 0.00015 µM
Molecule = CC(=O)C(N=Nc1ccc(S(=O)(=O)Nc2ccccn2)cc1)C(=O)Nc1ccc(Cl)cc1 (stereo not drawn); tested on = Genome polyprotein NS2B-NS3 protease; assay = enzyme activity, inhibitor; system = Dengue virus; setting = pH 8.0, together with: 20 µM Pyr-RTKR-AMC; endpoint = IC50; value = > 10 µM
Molecule = anthraquinone-neomycin; tested on = poly(dA)•2poly(dT) triplex; assay = thiazole orange displacement, fluorescence intercalator displacement; setting = pH 6.8, KCl 150 mM, together with: thiazole orange 1.25 µM; endpoint = AC50; value = 0.138 ± 0.02 µM

A few entries again:
Molecule = Cc1cccc(Cn2cc(COc3cc(-n4nc(C(C)(C)C)oc4=O)c(Cl)cc3Cl)nn2)c1; tested on = Toxoplasma gondii; assay = intracellular growth; system = HFF, Δppo knockout; setting = 96 h; endpoint = IC50; value = 34.6 ± 8.9 µM
